Measured values from different studies.
Each numbered part is a random draw from the data of one study; scales do not carry over between parts. “And” joins repeats or separate records; there may be more than shown.
UniProt Q8N5S9, sequence (whole entry, looked up): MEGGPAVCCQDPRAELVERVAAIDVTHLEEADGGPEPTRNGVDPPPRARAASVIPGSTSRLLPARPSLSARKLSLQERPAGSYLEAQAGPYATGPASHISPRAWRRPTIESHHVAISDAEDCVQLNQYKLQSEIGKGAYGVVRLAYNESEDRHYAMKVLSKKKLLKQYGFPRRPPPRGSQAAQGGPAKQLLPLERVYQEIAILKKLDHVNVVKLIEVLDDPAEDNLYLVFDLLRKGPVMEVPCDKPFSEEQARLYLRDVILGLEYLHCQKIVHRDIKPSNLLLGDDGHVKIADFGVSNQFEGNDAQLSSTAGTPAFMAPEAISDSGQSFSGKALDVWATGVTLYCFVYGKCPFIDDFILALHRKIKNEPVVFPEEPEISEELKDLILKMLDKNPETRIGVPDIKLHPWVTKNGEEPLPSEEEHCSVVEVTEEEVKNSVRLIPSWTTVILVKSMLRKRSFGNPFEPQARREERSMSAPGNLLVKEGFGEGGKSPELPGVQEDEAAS
UniProt Q14012, sequence (whole entry, looked up): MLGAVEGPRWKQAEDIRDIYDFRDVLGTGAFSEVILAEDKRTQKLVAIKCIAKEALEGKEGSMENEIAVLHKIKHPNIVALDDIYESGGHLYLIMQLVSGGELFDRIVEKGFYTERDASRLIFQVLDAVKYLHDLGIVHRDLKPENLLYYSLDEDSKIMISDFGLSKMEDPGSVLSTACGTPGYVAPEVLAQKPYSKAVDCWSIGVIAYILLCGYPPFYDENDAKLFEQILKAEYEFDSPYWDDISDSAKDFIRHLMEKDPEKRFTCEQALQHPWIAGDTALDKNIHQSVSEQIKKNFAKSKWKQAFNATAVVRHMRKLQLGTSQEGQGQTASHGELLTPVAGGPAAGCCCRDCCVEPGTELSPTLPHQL
UniProt Q04759, sequence (whole entry, looked up): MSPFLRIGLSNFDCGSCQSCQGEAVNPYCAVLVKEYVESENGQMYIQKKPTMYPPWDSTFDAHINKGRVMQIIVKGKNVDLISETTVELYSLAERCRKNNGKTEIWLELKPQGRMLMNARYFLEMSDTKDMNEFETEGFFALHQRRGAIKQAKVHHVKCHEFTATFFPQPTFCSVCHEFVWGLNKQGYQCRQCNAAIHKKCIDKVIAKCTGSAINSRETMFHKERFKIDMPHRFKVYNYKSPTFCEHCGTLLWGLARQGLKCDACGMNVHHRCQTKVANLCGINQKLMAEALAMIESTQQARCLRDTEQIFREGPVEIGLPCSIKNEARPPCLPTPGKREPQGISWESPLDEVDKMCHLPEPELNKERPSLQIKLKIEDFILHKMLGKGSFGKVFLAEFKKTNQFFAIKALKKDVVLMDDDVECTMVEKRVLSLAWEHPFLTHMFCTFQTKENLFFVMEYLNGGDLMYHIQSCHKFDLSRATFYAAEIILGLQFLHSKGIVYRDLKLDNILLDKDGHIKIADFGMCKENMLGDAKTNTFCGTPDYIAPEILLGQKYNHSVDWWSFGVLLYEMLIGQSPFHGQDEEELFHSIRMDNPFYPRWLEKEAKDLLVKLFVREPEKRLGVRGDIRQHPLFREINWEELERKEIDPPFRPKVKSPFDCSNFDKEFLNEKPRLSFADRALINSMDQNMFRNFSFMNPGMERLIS
UniProt P48736, sequence (whole entry, looked up): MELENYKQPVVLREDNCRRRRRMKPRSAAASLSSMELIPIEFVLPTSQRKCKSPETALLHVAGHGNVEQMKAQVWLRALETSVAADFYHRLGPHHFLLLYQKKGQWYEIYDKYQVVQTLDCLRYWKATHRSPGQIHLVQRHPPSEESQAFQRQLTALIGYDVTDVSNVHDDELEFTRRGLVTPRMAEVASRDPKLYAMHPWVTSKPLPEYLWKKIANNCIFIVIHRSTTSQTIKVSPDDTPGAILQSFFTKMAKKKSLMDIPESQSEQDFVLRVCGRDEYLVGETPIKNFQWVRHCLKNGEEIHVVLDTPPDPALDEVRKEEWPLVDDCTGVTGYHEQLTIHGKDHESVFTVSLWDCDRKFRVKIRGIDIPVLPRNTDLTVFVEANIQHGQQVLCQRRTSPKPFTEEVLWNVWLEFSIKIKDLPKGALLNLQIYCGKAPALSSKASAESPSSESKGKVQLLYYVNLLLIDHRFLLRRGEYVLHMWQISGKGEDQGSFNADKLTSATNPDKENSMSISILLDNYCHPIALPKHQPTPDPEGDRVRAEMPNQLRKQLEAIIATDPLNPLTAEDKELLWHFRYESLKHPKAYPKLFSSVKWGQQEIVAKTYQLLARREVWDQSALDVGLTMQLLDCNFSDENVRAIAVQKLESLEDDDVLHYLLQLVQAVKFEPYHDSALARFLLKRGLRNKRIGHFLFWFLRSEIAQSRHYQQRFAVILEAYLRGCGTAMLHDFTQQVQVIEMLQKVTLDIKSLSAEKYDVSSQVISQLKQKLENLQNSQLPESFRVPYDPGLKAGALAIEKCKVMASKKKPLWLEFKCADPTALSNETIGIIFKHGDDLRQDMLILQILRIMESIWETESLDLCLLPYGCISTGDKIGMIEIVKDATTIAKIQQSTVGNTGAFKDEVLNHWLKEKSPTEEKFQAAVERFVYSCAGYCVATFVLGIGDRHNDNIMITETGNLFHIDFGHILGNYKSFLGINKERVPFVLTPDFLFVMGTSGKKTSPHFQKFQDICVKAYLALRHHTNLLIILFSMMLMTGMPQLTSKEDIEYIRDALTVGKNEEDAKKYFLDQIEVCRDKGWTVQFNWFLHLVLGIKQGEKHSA
UniProt Q9H0K1, sequence (whole entry, looked up): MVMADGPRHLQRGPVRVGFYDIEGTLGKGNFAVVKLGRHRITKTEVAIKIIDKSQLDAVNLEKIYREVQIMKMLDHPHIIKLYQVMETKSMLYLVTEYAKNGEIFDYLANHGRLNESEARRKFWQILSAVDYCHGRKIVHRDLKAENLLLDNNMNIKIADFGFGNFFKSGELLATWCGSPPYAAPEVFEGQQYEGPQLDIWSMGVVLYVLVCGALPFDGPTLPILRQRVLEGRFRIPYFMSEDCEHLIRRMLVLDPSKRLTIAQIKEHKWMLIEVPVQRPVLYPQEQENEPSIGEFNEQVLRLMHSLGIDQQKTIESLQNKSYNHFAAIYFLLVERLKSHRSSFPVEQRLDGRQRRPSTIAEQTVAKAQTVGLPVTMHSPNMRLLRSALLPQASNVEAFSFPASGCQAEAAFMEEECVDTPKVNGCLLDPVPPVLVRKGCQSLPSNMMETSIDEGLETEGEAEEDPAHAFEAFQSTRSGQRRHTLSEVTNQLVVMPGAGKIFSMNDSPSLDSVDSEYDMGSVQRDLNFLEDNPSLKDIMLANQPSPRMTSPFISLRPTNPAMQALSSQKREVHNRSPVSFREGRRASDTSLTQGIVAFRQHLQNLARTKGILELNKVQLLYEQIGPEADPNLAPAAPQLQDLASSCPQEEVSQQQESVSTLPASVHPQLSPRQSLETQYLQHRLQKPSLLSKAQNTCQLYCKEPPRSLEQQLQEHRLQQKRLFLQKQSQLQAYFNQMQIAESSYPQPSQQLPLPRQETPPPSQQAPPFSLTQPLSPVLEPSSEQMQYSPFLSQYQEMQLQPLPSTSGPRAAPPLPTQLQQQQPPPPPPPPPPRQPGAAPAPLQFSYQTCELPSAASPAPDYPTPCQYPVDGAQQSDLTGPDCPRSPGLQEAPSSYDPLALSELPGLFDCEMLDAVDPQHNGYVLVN
UniProt Q96SB4, sequence (whole entry, looked up): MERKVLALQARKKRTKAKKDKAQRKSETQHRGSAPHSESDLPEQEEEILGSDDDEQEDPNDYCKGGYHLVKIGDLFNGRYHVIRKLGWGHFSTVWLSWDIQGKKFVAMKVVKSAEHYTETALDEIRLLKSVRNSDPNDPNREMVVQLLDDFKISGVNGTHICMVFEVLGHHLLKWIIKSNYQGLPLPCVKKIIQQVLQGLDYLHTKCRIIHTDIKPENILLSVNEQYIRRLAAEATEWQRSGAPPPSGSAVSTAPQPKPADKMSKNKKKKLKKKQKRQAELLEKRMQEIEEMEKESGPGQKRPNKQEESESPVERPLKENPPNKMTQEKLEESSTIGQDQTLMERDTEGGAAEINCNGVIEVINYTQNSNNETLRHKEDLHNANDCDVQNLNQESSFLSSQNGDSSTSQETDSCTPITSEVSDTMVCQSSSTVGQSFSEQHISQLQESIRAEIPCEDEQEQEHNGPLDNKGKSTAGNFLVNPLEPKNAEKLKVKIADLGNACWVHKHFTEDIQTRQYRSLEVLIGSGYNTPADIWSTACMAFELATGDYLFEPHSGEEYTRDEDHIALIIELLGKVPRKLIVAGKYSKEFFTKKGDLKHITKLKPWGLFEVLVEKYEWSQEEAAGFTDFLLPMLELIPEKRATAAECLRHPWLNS
UniProt Q9HBY8, sequence (whole entry, looked up): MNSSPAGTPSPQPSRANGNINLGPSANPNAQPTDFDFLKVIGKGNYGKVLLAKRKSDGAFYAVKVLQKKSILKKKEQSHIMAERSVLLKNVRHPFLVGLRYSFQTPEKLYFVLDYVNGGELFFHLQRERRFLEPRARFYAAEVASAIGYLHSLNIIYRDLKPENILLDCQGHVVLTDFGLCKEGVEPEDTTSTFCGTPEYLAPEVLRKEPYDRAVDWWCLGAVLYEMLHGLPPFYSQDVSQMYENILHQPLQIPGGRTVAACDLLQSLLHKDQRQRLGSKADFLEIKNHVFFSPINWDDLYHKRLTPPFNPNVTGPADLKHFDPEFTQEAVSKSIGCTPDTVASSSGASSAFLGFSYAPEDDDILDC
UniProt P49674, sequence (whole entry, looked up): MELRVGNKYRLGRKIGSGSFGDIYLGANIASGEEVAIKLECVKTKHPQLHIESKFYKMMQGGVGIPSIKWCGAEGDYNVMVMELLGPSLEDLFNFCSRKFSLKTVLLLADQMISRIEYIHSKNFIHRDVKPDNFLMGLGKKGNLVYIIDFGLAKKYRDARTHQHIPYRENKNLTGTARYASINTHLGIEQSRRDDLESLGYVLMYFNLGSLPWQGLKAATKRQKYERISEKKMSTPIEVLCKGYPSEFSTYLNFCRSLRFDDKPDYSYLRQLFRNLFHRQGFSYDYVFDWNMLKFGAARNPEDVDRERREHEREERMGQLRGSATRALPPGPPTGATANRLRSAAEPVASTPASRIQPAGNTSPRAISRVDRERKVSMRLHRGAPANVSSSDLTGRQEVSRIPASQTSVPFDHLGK

Sample 1
Cell line: HaCaT
Concentration: 100 µM
Time: 18 h
Quantity: viability
Compound = COC(=O)C1=C(C)NC(C)=C(C(=O)O[C@@H]2CCCN(Cc3ccccc3)C2)[C@@H]1c1cccc([N+](=O)[O-])c1 (racemic); value = 48%
Compound = CC(=O)OCC(=O)[C@@]1(O)CC[C@H]2[C@@H]3CCC4=CC(=O)CC[C@]4(C)[C@H]3C(=O)C[C@@]21C; value = 111%
Compound = C#C[C@]1(O)CC[C@H]2[C@@H]3CCC4=CC(=O)CC[C@@H]4[C@H]3CC[C@@]21C; value = 84%
Compound = CC[C@H](Nc1ncnc2[nH]cnc12)c1nc2cccc(F)c2c(=O)n1-c1ccccc1; value = 85.5%
Compound = CN1CC(=O)N2[C@H](c3ccc4c(c3)OCO4)c3[nH]c4ccccc4c3C[C@@H]2C1=O; value = 97.1%
Compound = COC(=O)/C=C/C(=O)OC; value = 108%
Compound = N[C@@H](CCC(=O)N[C@@H](CS)C(=O)NCC(=O)O)C(=O)O; value = 98.6%
Compound = CN(C)CCCN1c2ccccc2Sc2ccccc21; value = 33.7%

Sample 2
Cell line: mouse MPNST tumor cells
Method: high-content nuclear imaging
Item: cell number
Concentration: 10 µM
Time: 12 h
Setting: mean of 2 replicates
Baseline: plate mean
Direction: higher = more cells
Quantity: nuclei count
Structure (SMILES) = Cc1cc(C)nc(NS(=O)(=O)c2ccc(N)cc2)n1; value = 1.28 z-score
Structure (SMILES) = NS(=O)(=O)c1cc2c(cc1Cl)NC(CC1CCCC1)NS2(=O)=O (stereo not shown); value = 1.71 z-score
Structure (SMILES) = CSc1nc2cc(Cl)c(Oc3cccc(Cl)c3Cl)cc2[nH]1; value = -0.452 z-score
Structure (SMILES) = Cc1cc(C(C)Nc2ccc(F)c(-c3cc(C)c(C(=O)NC4(C(=O)O)CC4)c(C)c3)c2)ccc1Cl (stereo not shown); value = 3.31 z-score
Structure (SMILES) = COc1ccc(C[C@H](N)C(=O)N[C@H]2[C@@H](O)[C@H](n3cnc4c(N(C)C)ncnc43)O[C@@H]2CO)cc1; value = -6.34 z-score
Structure (SMILES) = CCn1c(=O)[nH]c2cc(Cl)c(Cl)cc21; value = 0.305 z-score
Structure (SMILES) = CN1CCN(c2c(F)cc3c(=O)c(C(=O)O)cn4c3c2SCC4)CC1; value = 0.637 z-score
Structure (SMILES) = Nc1ccn([C@@H]2O[C@H](CO)[C@@H](O)C2(F)F)c(=O)n1; value = -5.21 z-score and -3.19 z-score
Structure (SMILES) = COC(=O)[C@H](Cc1ccc([N+](=O)[O-])cc1)NC(=O)c1cccc2ccccc12; value = 0.322 z-score
Structure (SMILES) = CC(C(=O)O)c1ccc2c(c1)Cc1cccnc1O2 (stereo not shown); value = 0.273 z-score
Structure (SMILES) = Clc1ccccc1C(c1ccccc1)(c1ccccc1)n1ccnc1; value = 0.383 z-score and 0.722 z-score
Structure (SMILES) = NC(=O)c1cnccn1; value = 0.0444 z-score and 1.01 z-score

Sample 3
Compound: O=C(Nc1cnc(Oc2ccc(F)cc2)nc1)N1CCc2ncccc2[C@@H]1c1ccc(F)cc1
Observed: cell-free assay
Method: competition with immobilised ligand
Concentration: 1 µM
Quantity: remaining binding
target = MAPK14 (Homo sapiens, UniProt Q16539); value = 79%
target = TSSK1B (Homo sapiens, UniProt Q9BXA7); value = 100%
target = IRAK1 (Homo sapiens, UniProt P51617); value = 88%
target = EPHA3 (Homo sapiens, UniProt P29320); value = 82%
target = MAP3K13 (Homo sapiens, UniProt O43283); value = 88%
target = MTOR (Homo sapiens, UniProt P42345); value = 100%
target = PIK3CG (Homo sapiens, UniProt P48736); value = 85%
target = HUNK (Homo sapiens, UniProt P57058); value = 100%
target = RET (Homo sapiens, UniProt P07949, V804L); value = 86%
target = MAPK15 (Homo sapiens, UniProt Q8TD08); value = 93%

Sample 4
Structure (SMILES): CC[n+]1c(/C=C/N(C)c2ccccc2)n(-c2ccccc2)c2ccc(-c3nc4ccccc4s3)cc21
Observed: enzyme activity
Action: inhibitor
Concentration: 0.5 µM
Baseline: control
Quantity: remaining activity
target = TYRO3 (Homo sapiens, UniProt Q06418); value = 103%
target = CSNK1D (Homo sapiens, UniProt P48730); value = 104%
target = MAP3K20 (Homo sapiens, UniProt Q9NYL2); value = 93.8%
target = PRKCQ (Homo sapiens, UniProt Q04759); value = 94.6%
target = PRKCZ (Homo sapiens, UniProt Q05513); value = 99.8%
target = CLK1 (Homo sapiens, UniProt P49759); value = 108%
target = CSNK1E (Homo sapiens, UniProt P49674); value = 105%
target = CAMKK1 (Homo sapiens, UniProt Q8N5S9); value = 115%
target = RPS6KA3 (Homo sapiens, UniProt P51812); value = 109%
target = Cyclin-dependent kinase 2, with cyclin E (CDK2, Homo sapiens, UniProt P24941); value = 92.9%
target = FLT1 (Homo sapiens, UniProt P17948); value = 94.1%
target = PAK1 (Homo sapiens, UniProt Q13153); value = 87.5%
target = SIK2 (Homo sapiens, UniProt Q9H0K1); value = 112%
target = TEC (Homo sapiens, UniProt P42680); value = 161%
target = EPHA2 (Homo sapiens, UniProt P29317); value = 100%
target = SRPK1 (Homo sapiens, UniProt Q96SB4); value = 105%
target = SGK2 (Homo sapiens, UniProt Q9HBY8); value = 123%
target = IGF1R (Homo sapiens, UniProt P08069); value = 93%
target = CLK2 (Homo sapiens, UniProt P49760); value = 98.4%
target = PAK6 (Homo sapiens, UniProt Q9NQU5); value = 95.5%
target = CAMK1 (Homo sapiens, UniProt Q14012); value = 94.4%
target = JAK1 (Homo sapiens, UniProt P23458); value = 104%

Excerpt of the above (sample 4):
target = PAK1 (Homo sapiens, UniProt Q13153); value = 87.5%
target = SRPK1 (Homo sapiens, UniProt Q96SB4); value = 105%
target = FLT1 (Homo sapiens, UniProt P17948); value = 94.1%
target = PRKCZ (Homo sapiens, UniProt Q05513); value = 99.8%
target = PRKCQ (Homo sapiens, UniProt Q04759); value = 94.6%
